Published values pooled from the literature.
Each line is one published result; not all experiments were run side by side. Values joined by “and” are separate records of one study, mostly repeats; a detail may differ. ± gives the spread as reported.

SMILES | test | test system | setting | scale | endpoint | value
CC(=O)NCCCC[C@@H]1NC(=O)[C@H](Cc2c[nH]c3c(C)cccc23)NC(=O)[C@H]([C@@H](C)O)NC(=O)[C@H](CC(N)=O)NC(=O)[C@@H](NC(C)=O)C(C)(C)SSC(C)(C)[C@@H](C(=O)N[C@@H](Cc2ccc(OCCN)cc2)C(=O)N[C@@H](Cc2ccc3ccccc3c2)C(=O)NC2(C(=O)N[C@@H](CCC(=O)O)C(=O)N[C@@H](CC(N)=O)C(=O)N[C@@H](Cc3cccnc3)C(=O)N(C)CC(N)=O)CCOCC2)NC1=O |  | cynomolgus monkey, Achilles tendon | intravenous, 1 mg/kg |  | tissue to plasma ratio | 103%
C=CC(=O)Nc1cccc(Cn2ncc3cnc(Nc4cnn(CCOC)c4)nc32)c1 |  | Sprague-Dawley rat, female | oral, 180 mg/kg, day 28, 28-day subacute toxicity study |  | RDW-SD | 34.5 ± 1.47%
CCCCCCCCCCCC(=O)C(C)C(=O)N1CCC[C@H]1C(=O)NC(C)(C)C(=O)NC(C)(C)C(=O)NC(C)(C)C(=O)N[C@](C)(CC)C(=O)NCCC(=O)N[C@@H](C)C(=O)N[C@](C)(CC)C(=O)N[C@@H](C)C(=O)N[C@@H](CC(C)C)C(=O)N[C@](C)(CC)C(=O)NCCC(=O)N[C@@H](C)C(=O)N[C@](C)(CC)C(=O)NCCC(=O)N[C@@H](C)C(=O)NC(C)(C)C(=O)NC(C)(C)C(=O)NC(C)(C)C(=O)N[C@@H](C)C(=O)N[C@@H](CC(=O)O)C(=O)O (some centres unmarked) | LC-MS | buffer with trypsin | 40 µM, 10 min, pH 7.5, 37 °C | baseline: 0 h | remaining intact peptide | 80.9% and 98.4% and 100%
CSCC[C@H](N)C(=O)N[C@@H](C)C(=O)N[C@@H](Cc1c[nH]c2ccccc12)C(=O)N[C@@H](Cc1c[nH]cn1)C(=O)N[C@@H](CC(=O)O)C(=O)N[C@@H](CC(=O)O)C(=O)N[C@@H](CCC(=O)O)C(=O)N[C@@H](CCC(=O)O)C(=O)N[C@@H](Cc1ccccc1)C(=O)N[C@@H](C)C(=O)N[C@@H](CCCNC(=N)N)C(=O)N[C@@H](CCCNC(=N)N)C(=O)N[C@@H](CCCNC(=N)N)C(=O)N[C@@H](CCCNC(=N)N)C(=O)NCCCCCC(=O)NCCCCC(NC(=O)CCCCCNC(=O)[C@H](CCCNC(=N)N)NC(=O)[C@H](CCCNC(=N)N)NC(=O)[C@H](CCCNC(=N)N)NC(=O)[C@H](CCCNC(=N)N)NC(=O)[C@H](C)NC(=O)[C@H](Cc1ccccc1)NC(=O)[C@H](CCC(=O)O)NC(=O)[C@H](CCC(=O)O)NC(=O)[C@H](CC(=O)O)NC(=O)[C@H](CC(=O)O)NC(=O)[C@H](Cc1c[nH]cn1)NC(=O)[C@H](Cc1c[nH]c2ccccc12)NC(=O)[C@H](C)NC(=O)[C@@H](N)CCSC)C(=O)NCCCCC(NC(=O)C(CCCCNC(=O)CCCCCNC(=O)[C@H](CCCNC(=N)N)NC(=O)[C@H](CCCNC(=N)N)NC(=O)[C@H](CCCNC(=N)N)NC(=O)[C@H](CCCNC(=N)N)NC(=O)[C@H](C)NC(=O)[C@H](Cc1ccccc1)NC(=O)[C@H](CCC(=O)O)NC(=O)[C@H](CCC(=O)O)NC(=O)[C@H](CC(=O)O)NC(=O)[C@H](CC(=O)O)NC(=O)[C@H](Cc1c[nH]cn1)NC(=O)[C@H](Cc1c[nH]c2ccccc12)NC(=O)[C@H](C)NC(=O)[C@@H](N)CCSC)NC(=O)CCCCCNC(=O)[C@H](CCCNC(=N)N)NC(=O)[C@H](CCCNC(=N)N)NC(=O)[C@H](CCCNC(=N)N)NC(=O)[C@H](CCCNC(=N)N)NC(=O)[C@H](C)NC(=O)[C@H](Cc1ccccc1)NC(=O)[C@H](CCC(=O)O)NC(=O)[C@H](CCC(=O)O)NC(=O)[C@H](CC(=O)O)NC(=O)[C@H](CC(=O)O)NC(=O)[C@H](Cc1c[nH]cn1)NC(=O)[C@H](Cc1c[nH]c2ccccc12)NC(=O)[C@H](C)NC(=O)[C@@H](N)CCSC)C(N)=O (some centres unmarked) |  | C57BL/6 mouse female, small intestine | 6 h | baseline: total dose | tissue distribution | 13.1%
CSCC[C@H](NC(=O)CNC(=O)[C@H](CCCCN)NC(=O)[C@H](CC(C)C)NC(=O)[C@@H]1CCCN1C(=O)[C@H](CO)NC(=O)[C@H](Cc1c[nH]cn1)NC(=O)[C@H](Cc1c[nH]c2ccccc12)NC(=O)[C@H](CCCNC(=N)N)NC(=O)[C@H](CC(C)C)NC(=O)[C@H](CCCNC(=N)N)NC(=O)[C@H](Cc1c[nH]c2ccccc12)NC(=O)[C@H](CS)NC(=O)CCCCCNC(=O)CN1CCN(CC(=O)O)CCN(CC(=O)O)CCN(CC(=O)O)CC1)C(=O)O [copper-64 labelled] |  | C57BL/6J mice, B16-F10 tumour, blood | intravenous, 1.85 MBq, 2 h |  | tissue uptake | 1.68 %ID/g
CCCCCCCCCCCCCCCC(=O)N[C@@H](CCC(=O)NCCOCCOCCC(=O)NCCOCCOCCC(=O)NCCCC[C@H](NC(=O)[C@H](CC(=O)O)NC(=O)[C@H](CC(C)C)NC(=O)[C@H](Cc1ccc(O)cc1)NC(=O)[C@H](CCCCN)NC(=O)[C@H](CO)NC(=O)[C@H](Cc1ccc(O)cc1)NC(=O)[C@H](CC(=O)O)NC(=O)[C@H](CO)NC(=O)[C@@H](NC(=O)[C@H](Cc1ccccc1)NC(=O)[C@@H](NC(=O)CNC(=O)[C@H](CCC(N)=O)NC(=O)[C@@H](CO)NC(=O)[C@@H](N)Cc1c[nH]cn1)[C@@H](C)O)[C@@H](C)O)C(=O)N[C@@H](CCCNC(=N)N)C(=O)N[C@@H](CCCNC(=N)N)C(=O)N[C@@H](C)C(=O)N[C@@H](CCC(N)=O)C(=O)N[C@@H](CC(=O)O)C(=O)N[C@@H](Cc1ccccc1)C(=O)N[C@H](C(=O)N[C@@H](CCC(N)=O)C(=O)N[C@@H](Cc1c[nH]c2ccccc12)C(=O)N[C@@H](CC(C)C)C(=O)N[C@@H](CC(C)C)C(=O)N[C@@H](CC(N)=O)C(=O)N[C@H](C(=O)NCC(=O)NCC(=O)N1CCC[C@H]1C(=O)N[C@@H](CO)C(=O)N[C@@H](CO)C(=O)NCC(=O)N[C@@H](C)C(=O)N1CCC[C@H]1C(=O)N1CCC[C@H]1C(=O)N1CCC[C@H]1C(=O)N[C@@H](CO)C(N)=O)[C@@H](C)O)C(C)C)C(=O)O |  | Sprague-Dawley rat, male | subcutaneous, 500 µg/kg once daily, 14 days |  | urea | 4.02 ± 0.38 mmol/L
CC1(C)C(=O)N(c2ccc(C#N)c(C(F)(F)F)c2)C(=S)N1c1ccc(C(N)=O)c(F)c1 |  | male human, plasma | oral, 80 mg, single dose, fasted |  | Tmax | 168 h
CCCC/C=C/C(=O)N[C@@H](Cc1csc2ccccc12)C(=O)N[C@H]1COC(=O)[C@@H]2C[C@@H](C)CN2C(=O)[C@H](C)NC(=O)[C@@H]2CCCCN2C(=O)[C@@H]2CCCN2C1=O | LDH release | human ESC-derived lung organoids | concentration not given, 2 days |  | cytotoxicity | 1.27% and 1.5% and 1.69%
CCCCCCCCCCCCCCCC(=O)N[C@@H](CCCNC(=N)N)C(=O)N[C@@H](Cc1c[nH]c2ccccc12)C(=O)N[C@@H](CCCCN)C(=O)N[C@H](C(=O)N[C@@H](Cc1ccccc1)C(=O)N[C@@H](CCCCN)C(=O)N[C@@H](CCCCN)C(=O)N[C@H](C(=O)N[C@@H](CCC(=O)O)C(=O)N[C@@H](CCCCN)C(=O)N[C@H](C(=O)NCC(=O)N[C@@H](CCC(N)=O)C(=O)N[C@@H](CC(N)=O)C(=O)N[C@H](C(=O)N[C@@H](CCCNC(=N)N)C(=O)N[C@@H](CC(=O)O)C(=O)NCC(=O)N[C@H](C(=O)N[C@H](C(=O)N[C@@H](CCCCN)C(=O)N[C@@H](C)C(=O)NCC(=O)N1CCC[C@H]1C(=O)N[C@@H](C)C(=O)N[C@H](C(=O)N[C@@H](C)C(=O)N[C@H](C(=O)N[C@H](C(=O)NCC(=O)N[C@@H](CCC(N)=O)C(=O)N[C@@H](C)C(=O)N[C@@H](C)C(=O)N[C@H](C(=O)N[C@H](C(N)=O)[C@@H](C)CC)[C@@H](C)O)C(C)C)C(C)C)C(C)C)C(C)C)[C@@H](C)CC)[C@@H](C)CC)C(C)C)[C@@H](C)CC)[C@@H](C)CC |  | mouse erythrocytes | 32 µM, 1 h, 37 °C |  | hemolysis | ~30%
CCCC[C@H]1C(=O)N(C)[C@@H](CCCC)C(=O)N[C@@H](CCCNC(=O)CN2CCN(CC(=O)O)CCN(CC(=O)O)CCN(CC(=O)O)CC2)C(=O)N[C@H](C(=O)NCC(N)=O)CSCC(=O)N[C@@H](Cc2ccc(O)cc2)C(=O)N(C)[C@@H](C)C(=O)N[C@@H](CC(N)=O)C(=O)N2CCC[C@H]2C(=O)N[C@@H](Cc2c[nH]cn2)C(=O)N[C@@H](CC(C)C)C(=O)N(C)CC(=O)N[C@@H](Cc2c[nH]c3ccccc23)C(=O)N[C@@H](CO)C(=O)N[C@@H](Cc2c[nH]c3ccccc23)C(=O)N1C [gallium-68 labelled] |  | NOD/SCID mice, CHO-hPD-L1 xenograft, blood | 60 min, PBS pretreatment |  | tissue uptake | 8.15 ± 1 %ID/g
CC[C@H](C)[C@H](NC(=O)[C@H](CCCCN)NC(=O)CNC(=O)[C@H](CC(C)C)NC(=O)[C@H](Cc1ccccc1)NC(=O)[C@H](CCCCN)NC(=O)[C@H](CO)NC(=O)[C@H](Cc1ccccc1)NC(=O)[C@H](Cc1c[nH]c2ccccc12)NC(=O)[C@H](CCC(N)=O)NC(=O)[C@@H](NC(=O)[C@H](Cc1ccccc1)NC(=O)CCCCCNC(=O)CN1CCN(CC(=O)O)CCN(CC(=O)O)CCN(CC(=O)O)CC1)C(C)C)C(=O)N[C@@H](CCC(=O)O)C(=O)N1CCC[C@H]1C(=O)N[C@@H](CC(=O)O)C(=O)N[C@H](C(=O)N[C@@H](CO)C(=O)N[C@@H](CCC(N)=O)C(=O)N[C@H](C(=O)N[C@@H](CCC(N)=O)C(=O)N[C@@H](CC(=O)O)C(=O)N1CCC[C@H]1C(=O)N[C@@H](CC(N)=O)C(=O)N[C@@H](CC(=O)O)C(=O)N[C@@H](CCC(N)=O)C(=O)N[C@@H](Cc1ccc(O)cc1)C(=O)N[C@@H](CCC(=O)O)C(=O)N1CCC[C@H]1C(=O)N[C@@H](Cc1ccccc1)C(=O)O)C(C)C)C(C)C [copper-64 labelled] |  | GZMB-/- mice, CT26 tumour-bearing, blood | 2 h, vehicle-treated |  | tissue uptake | 0.84 ± 0.1 %ID/g
N#[11C]c1ccc(-c2csc(NN=C3CCCC3)n2)cc1 |  | C57BL/6 mouse, male | intravenous, 3 MBq, 5 min |  | uptake in stomach with contents | 2.83 ± 0.91 %ID/g
O=C(c1cc(Cc2n[nH]c(=O)c3ccccc23)ccc1F)N1CC(CNC2CC2)C1 |  | Wistar Han rat, male, blood | oral, 60 mg/kg daily, 4 weeks |  | haemoglobin | 11.4 ± 1.5 g/dL
C#Cc1c(F)ccc2cc(O)cc(-c3ncc4c(N5CC6CCC(C5)N6C(=O)OC(C)OC(=O)C(CCCC)CCCCCC)nc(OC[C@@]56CCCN5C[C@H](F)C6)nc4c3F)c12 (some centres unmarked) | chemical stability | simulated intestinal fluid | 1 µM, 30 min |  | compound remaining | 106%

A few entries again:
SMILES | test | test system | setting | scale | endpoint | value
CSCC[C@H](NC(=O)CNC(=O)[C@H](CCCCN)NC(=O)[C@H](CC(C)C)NC(=O)[C@@H]1CCCN1C(=O)[C@H](CO)NC(=O)[C@H](Cc1c[nH]cn1)NC(=O)[C@H](Cc1c[nH]c2ccccc12)NC(=O)[C@H](CCCNC(=N)N)NC(=O)[C@H](CC(C)C)NC(=O)[C@H](CCCNC(=N)N)NC(=O)[C@H](Cc1c[nH]c2ccccc12)NC(=O)[C@H](CS)NC(=O)CCCCCNC(=O)CN1CCN(CC(=O)O)CCN(CC(=O)O)CCN(CC(=O)O)CC1)C(=O)O [copper-64 labelled] |  | C57BL/6J mice, B16-F10 tumour, blood | intravenous, 1.85 MBq, 2 h |  | tissue uptake | 1.68 %ID/g
